Experimental data pooled from the literature.
Each line is one published result; not all experiments were run side by side. ± marks the error that the study gave.
CLK1: Dual specificity protein kinase CLK1 (CLK1, Homo sapiens, UniProt P49759)
Chain of UniProt P49759 (whole entry, looked up): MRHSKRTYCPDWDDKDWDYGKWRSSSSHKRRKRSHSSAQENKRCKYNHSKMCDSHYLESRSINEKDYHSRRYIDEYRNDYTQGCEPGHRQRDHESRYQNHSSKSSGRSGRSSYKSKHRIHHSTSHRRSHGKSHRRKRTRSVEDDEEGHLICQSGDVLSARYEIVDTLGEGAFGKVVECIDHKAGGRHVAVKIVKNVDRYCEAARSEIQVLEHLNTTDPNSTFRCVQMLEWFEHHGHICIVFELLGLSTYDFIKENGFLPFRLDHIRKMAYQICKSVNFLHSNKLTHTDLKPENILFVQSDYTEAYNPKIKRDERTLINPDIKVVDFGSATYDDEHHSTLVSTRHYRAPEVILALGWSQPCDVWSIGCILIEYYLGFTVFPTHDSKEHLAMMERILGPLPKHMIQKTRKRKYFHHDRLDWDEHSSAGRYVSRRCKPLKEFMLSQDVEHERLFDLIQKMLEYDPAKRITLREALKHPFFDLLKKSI
B1: enzyme N77A (Streptomyces parvus, UniProt A0A7K3RVR3); chain MYVPEQYRPRDASWTLELIRSNPLALLVTNGPQHPWATHVPVLFAEEPDGPEGPDGLDATGDDLVGRRLLGHLNLMAPHWEALAGAGHALLVFQGPGSYVSPTVYETAPAAPTWDFTSVHVHGALRLIDDPDDLRKIVQATVRAYEREVGTDWDMSESLEYFERLLPGVRGFEIKIESVDSMFKLSQEQLPETVTKVIDSFRRSDGGRRQELATMIERAASD
B2: enzyme Y105A (Streptomyces parvus, UniProt A0A7K3RVR3); chain MYVPEQYRPRDASWTLELIRSNPLALLVTNGPQHPWATHVPVLFAEEPDGPEGPDGLDATGDDLVGRRLLGHLNLMNPHWEALAGAGHALLVFQGPGSYVSPTVAETAPAAPTWDFTSVHVHGALRLIDDPDDLRKIVQATVRAYEREVGTDWDMSESLEYFERLLPGVRGFEIKIESVDSMFKLSQEQLPETVTKVIDSFRRSDGGRRQELATMIERAASD
Chain of UniProt Q13523 (whole entry, looked up): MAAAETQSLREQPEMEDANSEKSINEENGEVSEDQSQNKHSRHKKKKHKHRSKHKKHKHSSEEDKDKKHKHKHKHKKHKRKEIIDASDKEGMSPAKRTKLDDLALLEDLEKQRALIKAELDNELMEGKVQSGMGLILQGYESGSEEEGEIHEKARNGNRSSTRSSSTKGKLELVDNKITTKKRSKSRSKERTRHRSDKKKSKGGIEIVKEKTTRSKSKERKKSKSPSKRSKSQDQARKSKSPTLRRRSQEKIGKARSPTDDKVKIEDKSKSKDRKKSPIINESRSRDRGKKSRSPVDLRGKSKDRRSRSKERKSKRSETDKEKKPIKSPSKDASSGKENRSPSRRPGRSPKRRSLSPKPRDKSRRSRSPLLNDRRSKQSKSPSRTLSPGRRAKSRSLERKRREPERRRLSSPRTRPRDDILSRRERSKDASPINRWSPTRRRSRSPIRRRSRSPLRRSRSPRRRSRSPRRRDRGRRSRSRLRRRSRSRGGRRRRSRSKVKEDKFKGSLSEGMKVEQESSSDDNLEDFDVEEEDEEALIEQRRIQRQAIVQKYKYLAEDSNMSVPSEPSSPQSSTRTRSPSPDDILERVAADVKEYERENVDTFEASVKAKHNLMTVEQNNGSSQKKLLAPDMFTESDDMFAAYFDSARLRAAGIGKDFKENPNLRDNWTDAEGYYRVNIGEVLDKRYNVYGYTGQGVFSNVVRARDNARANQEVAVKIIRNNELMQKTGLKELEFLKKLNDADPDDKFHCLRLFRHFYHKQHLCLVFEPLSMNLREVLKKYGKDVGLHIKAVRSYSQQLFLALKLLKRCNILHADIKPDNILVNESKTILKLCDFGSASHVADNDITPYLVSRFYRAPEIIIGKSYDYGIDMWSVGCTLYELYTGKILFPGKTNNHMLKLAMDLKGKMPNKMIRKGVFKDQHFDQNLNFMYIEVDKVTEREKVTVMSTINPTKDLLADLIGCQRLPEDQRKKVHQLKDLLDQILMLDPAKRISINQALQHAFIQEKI

Substance | tested on | test | test system | setting | endpoint | value
N=C(N)NCCC[C@@H]1NC(=O)[C@H](CCCCNC(=O)CCC(NC(=S)Nc2ccc(CC3CN(CC(=O)O)CCN(CC(=O)O)CCN(CC(=O)O)CCN3CC(=O)O)cc2)C(=O)NCCCC[C@@H]2NC(=O)[C@@H](Cc3ccc(O)cc3)NC(=O)[C@H](CC(=O)O)NC(=O)CNC(=O)[C@H](CCCNC(=N)N)NC2=O)NC(=O)[C@@H](Cc2ccc(O)cc2)NC(=O)[C@H](CC(=O)O)NC(=O)CNC1=O (stereo partly shown) [scandium-44 labelled] | – | ex vivo γ-counting | female athymic nude mice, U-87 MG xenograft, skin | intravenous, 4 h | tissue uptake | 0.64 ± 0.33 %ID/g
O=C1NC2(CC2)COc2ncc(F)cc2[C@H]2COCCN2c2ccn3ncc1c3n2 | – | – | Sprague-Dawley rat, female, serum | oral, 5 mg/kg/day, 4 weeks daily, end of recovery period | potassium | 3.99 ± 0.31 mmol/L
CC[C@H](C)[C@H](NC(=O)[C@H](CO)NC(=O)[C@H](Cc1ccc(O)cc1)NC(=O)[C@H](Cc1ccc(O)cc1)NC(=O)[C@H](CC(N)=O)NC(=O)CNC(=O)[C@H](CO)NC(=O)[C@H](Cc1ccc(O)cc1)NC(=O)[C@H](CO)NC(=O)[C@H](CO)NC(=O)[C@H](CC(N)=O)NC(=O)COCCOCCNC(=O)CN1CCN(CC(=O)O)CCN(CC(=O)O)CCN(CC(=O)O)CC1)C(=O)N[C@@H](CC(C)C)C(N)=O [copper-64 labelled] | – | dynamic PET | KPC mouse, pancreatic cancer model, tumor | intravenous, 22.5 min, 49 days after tamoxifen | tumour uptake | 7.05 %ID/mL
CS(C)(=O)=Nc1ccc(-c2ccc(-c3nc4cc(O[C@@H]5CO[C@H]6[C@@H]5OC[C@H]6O)[nH]c4cc3F)cc2)cc1 | CLK1 | enzyme activity, inhibitor | – | 10 µM | inhibition | 5%
CC[C@H](C)[C@H](NC(=O)[C@H](CCC(N)=O)NC(=O)[C@H](Cc1c[nH]cn1)NC(=O)[C@@H](NC(=O)[C@H](Cc1c[nH]c2ccccc12)NC(=O)[C@H](CO)NC(=O)[C@H](CCC(N)=O)NC(=O)[C@@H]1CCCN1C(=O)[C@H](Cc1c[nH]cn1)NC(=O)[C@@H](NC(=O)[C@H](CCCNC(=N)N)NC(=O)[C@H](CC(C)C)NC(=O)[C@H](Cc1ccc(O)cc1)NC(=O)[C@H](CCCNC(=N)N)NC(=O)[C@@H](NC(=O)[C@H]1CC[C@H](CN)CC1)[C@@H](C)O)[C@@H](C)CC)C(C)C)C(=O)O | HUVEC | MTT | – | 1.0 mg/ml, 24 h, 37 °C | viability | 5 to 10%
CC[C@H](C)[C@@H]([C@@H](CC(=O)N1CCC[C@H]1[C@H](OC)[C@@H](C)C(=O)N[C@H](C)[C@@H](O)c1ccccc1)OC)N(C)C(=O)[C@@H](NC(=O)[C@H](C(C)C)N(C)C(=O)OCc1ccc(NC(=O)[C@H](CCCNC(N)=O)NC(=O)[C@@H](NC(=O)CCCCCN2C(=O)CC(SC[C@H](NC(=O)[C@H](CC(=O)O)NC(=O)[C@H](Cc3ccc(O)cc3)NC(=O)[C@H](Cc3c[nH]c4ccccc34)NC(=O)[C@@H](N)CCCNC(=N)N)C(=O)O)C2=O)C(C)C)cc1)C(C)C (stereo partly shown) | – | – | C57BL/6 mouse, healthy, liver | intraperitoneal, 2.5 mg/kg, 0.167 h | concentration | not detected
CCCC[C@H](NC(=O)CN1CCC(NC(=O)CN2CCN(CC(N)=O)CCN(CC(N)=O)CCN(CC(N)=O)CC2)CC1)C(=O)N[C@H]1CC(=O)NCCCC[C@@H](C(N)=O)NC(=O)[C@H](Cc2c[nH]c3ccccc23)NC(=O)[C@H](CCCNC(=N)N)NC(=O)[C@@H](Cc2ccccc2)NC(=O)[C@H](Cc2c[nH]cn2)NC1=O [lead-203 labelled] | – | – | male C57BL/6J mice B16-F10 tumour, bone | intravenous, 20 pmol, 2 h | tissue uptake | 1.54 ± 0.3 %ID/g
CC[C@H](C)[C@H](NC(=O)[C@H](CCC(N)=O)NC(=O)[C@H](Cc1c[nH]cn1)NC(=O)[C@@H](NC(=O)[C@H](Cc1c[nH]c2ccccc12)NC(=O)[C@H](CO)NC(=O)[C@H](CCC(N)=O)NC(=O)[C@@H]1CCCN1C(=O)[C@H](Cc1c[nH]cn1)NC(=O)[C@@H](NC(=O)[C@H](CCCNC(=N)N)NC(=O)[C@H](CC(C)C)NC(=O)[C@H](Cc1ccc(O)cc1)NC(=O)[C@H](CCCNC(=N)N)NC(=O)[C@@H](NC(=O)[C@H](CS)NC(=O)[C@H](CCCCN)NC(=O)[C@H](Cc1ccccc1)NC(=O)[C@@H](NC(=O)[C@H](CCCCN)NC(=O)[C@H]1CC[C@H](CN)CC1)[C@@H](C)O)[C@@H](C)O)[C@@H](C)CC)C(C)C)C(=O)O | rat cortical neurons | MTT | – | 1.0 mg/ml, 24 h, 37 °C | viability | 5 to 10%
CC(C)[C@H]1NC(=O)C[C@H]2/C=C/CCSSC[C@@H](NC1=O)C(=O)N[C@H](Cc1cccc3ccccc13)C(=O)NCC(=O)O2 | CLK1 | enzyme activity, inhibitor | – | 10 µM | inhibition | 0.4%
B1 (enzyme N77A) | N[C@@H](CCCNO)C(=O)O | steady-state kinetics | – | pH 8, 25 °C, together with: heme | kcat | 0.392 s⁻¹
CN(C)[C@H]1C[C@@]23CC[C@@]4(O2)C(=CC[C@]2(C)[C@@H](c5ccc6ccncc6c5)CC[C@H]24)C=C3[C@@H](O)[C@@H]1O | Serine/threonine-protein kinase PRP4 homolog (PRPF4B, Homo sapiens, UniProt Q13523) | ATP probe labelling, inhibitor, KiNativ profiling | – | 1 µM | inhibition | 4.9%
B2 (enzyme Y105A) | N[C@@H](CCCNO)C(=O)O | steady-state kinetics | – | pH 8, 25 °C, together with: heme | kcat | 0.948 s⁻¹
CC(=O)N[C@@H](CC(C)C)C(=O)N[C@H](C(=O)N[C@@H](Cc1ccccc1)C(=O)N[C@]1(C)CCCCCC/C=C/CCC[C@@](C)(C(=O)N[C@@H](C)C(=O)N[C@@H](C)C(=O)N[C@@H](C)C(=O)N[C@@H](C)C(=O)N[C@@H](C)C(=O)N[C@H](C)C(N)=O)NC(=O)[C@H](CC(C)C)NC(=O)[C@H](CCCCNC(=O)CCNC(=O)C[C@@H]2N=C(c3ccc(Cl)cc3)c3c(sc(C)c3C)-n3c(C)nnc32)NC(=O)[C@H](C)NC(=O)[C@H](Cc2c[nH]c3ccccc23)NC(=O)[C@H](Cc2ccc(O)cc2)NC(=O)[C@H](C)NC1=O)[C@@H](C)O | – | – | male C57BL/6 mouse, plasma | intraperitoneal, 3 mg/kg, single dose | Cmax | 940 nM

For quick reference, copied from above:
Substance | tested on | test | test system | setting | endpoint | value
CN(C)[C@H]1C[C@@]23CC[C@@]4(O2)C(=CC[C@]2(C)[C@@H](c5ccc6ccncc6c5)CC[C@H]24)C=C3[C@@H](O)[C@@H]1O | Serine/threonine-protein kinase PRP4 homolog (PRPF4B, Homo sapiens, UniProt Q13523) | ATP probe labelling, inhibitor, KiNativ profiling | – | 1 µM | inhibition | 4.9%
